{"data": "Assay results of several laboratories", "note": "Each numbered part is a random draw from the data of one study; scales do not carry over between parts. Changes are numbered by the printed parent chain."}
{"data": "Study 1", "partner": "ARF10 575-693 (Arabidopsis thaliana, UniProt Q9SKN5)", "technique": "two-hybrid", "relative to": "out of 4 tests", "direction": "higher = firmer interaction", "B1": "IAA19 (Arabidopsis thaliana, UniProt O24409); chain MEKEGLGLEITELRLGLPGRDVAEKMMKKRAFTEMNMTSSGSNSDQCESGVVSSGGDAEKVNDSPAAKSQVVGWPPVCSYRKKNSCKEASTTKVGLGYVKVSMDGVPYLRKMDLGSSQGYDDLAFALDKLFGFRGIGVALKDGDNCEYVTIYEDKDGDWMLAGDVPWGMFLESCKRLRIMKRSDATGFGLQPRGVDE", "B2": "IAA32 (Arabidopsis thaliana, UniProt Q8RYC6); chain MDPNTPADFFKGSSKFHTYYSQTKKGGGVIDLGLSLRTIQHETYLPPARMIGLDGYGELIDWSQPSYNSITQLKSEDTGHQRLAQGYYNNEGESRGKYAYVKVNLDGLVVGRKVCLVDQGAYATLALQLNDMFGMQTVSGLRLFQTESEFSLVYRDREGIWRNVGDVPWKEFVESVDRMRIARRNDALLPF", "B3": "ARF7 1030-1164 (Arabidopsis thaliana, UniProt P93022); chain PAQTQRMRTYTKVQKRGSVGRSIDVNRYRGYDELRHDLARMFGIEGQLEDPQTSDWKLVYVDHENDILLVGDDPWEEFVNCVQSIKILSSAEVQQMSLDGNFAGVPVTNQACSGGDSGNAWRGHYDDNSATSFNR", "B4": "IAA28 (Arabidopsis thaliana, UniProt Q9XFM0); chain MEEEKRLELRLAPPCHQFTSNNNINGSKQKSSTKETSFLSNNRVEVAPVVGWPPVRSSRRNLTAQLKEEMKKKESDEEKELYVKINMEGVPIGRKVNLSAYNNYQQLSHAVDQLFSKKDSWDLNRQYTLVYEDTEGDKVLVGDVPWEMFVSTVKRLHVLKTSHAFSLSPRKHGKE", "B5": "IAA26 (Arabidopsis thaliana, UniProt Q8LAL2); chain MEGCPRNREIGPKLLDLIPQGRKWYQEDKNNTDQEKKLELRLGPPGGDEEDHSAIKKKNTEIRNIKKETEDKSFHCFNGNHFSPSNKTTSVPHISQKRTAPGPVVGWPPVRSFRKNLASTSSSKLGNESSHGGQINKSDDGEKQVETKKEGMFVKINMDGVPIGRKVDLNAYNSYEQLSFVVDKLFRGLLAAQRDISDGQGEEKPIIGLLDGKGEFTLTYEDNEGDKMLVGDVPWQMFVSSVKRLRVIKSSEISSALTFGCSKQEKMMH", "B6": "ARF1 538-665 (Arabidopsis thaliana, UniProt Q8L7G0); chain SRQIRSCTKVHMQGSAVGRAIDLTRSECYEDLFKKLEEMFDIKGELLESTKKWQVVYTDDEDDMMMVGDDPWNEFCGMVRKIFIYTPEEVKKLSPKNKLAVNARMQLKADAEENGNTEGRSSSMAGSR", "B7": "ARF4 660-788 (Arabidopsis thaliana, UniProt Q9ZTX9); chain QSSSKRICTKVHKQGSQVGRAIDLSRLNGYDDLLMELERLFNMEGLLRDPEKGWRILYTDSENDMMVVGDDPWHDFCNVVWKIHLYTKEEVENANDDNKSCLEQAALMMEASKSSSVSQPDSSPTITRV", "B8": "ARF8 699-811 (Arabidopsis thaliana, UniProt Q9FGV1); chain NSSNQTKNFVKVYKSGSVGRSLDISRFSSYHELREELGKMFAIEGLLEDPLRSGWQLVFVDKENDILLLGDDPWESFVNNVWYIKILSPEDVHQMGDHGEGSGGLFPQNPTHL", "Residues (chain)": "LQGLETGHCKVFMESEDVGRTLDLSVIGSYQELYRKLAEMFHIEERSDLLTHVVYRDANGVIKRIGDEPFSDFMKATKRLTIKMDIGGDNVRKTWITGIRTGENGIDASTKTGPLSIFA"}
{"Molecule": "B1 (IAA19)", "positive tests": 0}
{"Molecule": "B2 (IAA32)", "positive tests": 2}
{"Molecule": "B3 (ARF7 1030-1164)", "positive tests": 1}
{"Molecule": "B4 (IAA28)", "positive tests": 0}
{"Molecule": "B5 (IAA26)", "positive tests": 2}
{"Molecule": "B6 (ARF1 538-665)", "positive tests": 0}
{"Molecule": "B7 (ARF4 660-788)", "positive tests": 0}
{"Molecule": "B8 (ARF8 699-811)", "positive tests": 0}
{"data": "Study 2", "target": "PABPC1L2, full length, GST fusion (mouse, UniProt A0ABA7IW68)", "technique": "RNAcompete", "form": "RNA", "medium": "in vitro", "concentration": "20 nM", "setting": "7-mer, probes averaged, single round", "relative to": "mean of 7-mers", "direction": "higher = stronger binding", "Construct (chain)": "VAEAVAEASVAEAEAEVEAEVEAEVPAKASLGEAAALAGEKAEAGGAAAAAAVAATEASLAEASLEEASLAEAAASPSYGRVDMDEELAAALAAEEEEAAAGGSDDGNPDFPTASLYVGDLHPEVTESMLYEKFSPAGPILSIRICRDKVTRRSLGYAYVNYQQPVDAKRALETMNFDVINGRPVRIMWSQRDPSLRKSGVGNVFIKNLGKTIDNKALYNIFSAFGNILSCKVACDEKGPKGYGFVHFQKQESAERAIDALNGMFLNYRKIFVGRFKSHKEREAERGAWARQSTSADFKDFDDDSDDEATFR"}
{"Strand": "CCGGUGG", "7-mer Z-score": -0.162}
{"Strand": "ACGGUGA", "7-mer Z-score": -0.0464}
{"Strand": "CAUCGGC", "7-mer Z-score": -0.22}
{"Strand": "GGUUCCC", "7-mer Z-score": -0.26}
{"Strand": "UGCCGCU", "7-mer Z-score": -0.349}
{"Strand": "CUGUGGG", "7-mer Z-score": -0.113}
{"Strand": "AUAUUGU", "7-mer Z-score": -0.128}
{"Strand": "UAUCUAG", "7-mer Z-score": -0.233}
{"data": "Study 3", "target": "CRIPT, C-terminal peptide", "technique": "DHFR complementation, deep sequencing", "medium": "yeast", "setting": "single substitutions, model-inferred values", "relative to": "wild type", "direction": "higher = weaker binding", "starting sequence": "ERBIN, PDZ domain 1 (human); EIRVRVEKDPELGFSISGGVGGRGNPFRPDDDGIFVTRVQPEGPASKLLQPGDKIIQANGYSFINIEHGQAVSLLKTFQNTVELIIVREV; partner TKNYKQTSV"}
{"Variant": "I16A", "binding free energy change [kcal/mol]": 0.554}
{"Variant": "F63Y", "binding free energy change [kcal/mol]": 0.414}
{"Variant": "K47C", "binding free energy change [kcal/mol]": 0.0949}
{"Variant": "Q70M", "binding free energy change [kcal/mol]": 0.0434}
{"Variant": "P29G", "binding free energy change [kcal/mol]": 0.144}
{"Variant": "L49Y", "binding free energy change [kcal/mol]": 0.0325}
{"Variant": "V6G", "binding free energy change [kcal/mol]": 1}
{"Variant": "E89T", "binding free energy change [kcal/mol]": 0.0182}
{"data": "Other studies, line by line", "starting sequence": "viral docking peptide; CKVKRKLFGSENI"}
{"Variant": "CKVKAKLFGSENI [R5A]", "target": "CCNB2, cyclin fold, Cln2 fusion (human)", "test": "yeast growth competition, sequencing", "system": "yeast", "conditions": "weak parent motif", "scale": "relative to: not given, higher = stronger binding", "quantity": "normalised enrichment score", "value": 0.00475}
{"note": "For quick reference, copied from above (study 3):"}
{"Variant": "V6G", "binding free energy change [kcal/mol]": 1}
{"Variant": "Q70M", "binding free energy change [kcal/mol]": 0.0434}
{"Variant": "E89T", "binding free energy change [kcal/mol]": 0.0182}
